Results collected from several papers.
Each line is one published result; not all experiments were run side by side. “And” joins repeats or separate records; there may be more than shown. ± marks the error that the study gave.
SLCO1B3: Solute carrier organic anion transporter family member 1B3 (SLCO1B3, Homo sapiens, UniProt Q9NPD5)
Sequence of UniProt Q9NPD5 (whole entry, looked up): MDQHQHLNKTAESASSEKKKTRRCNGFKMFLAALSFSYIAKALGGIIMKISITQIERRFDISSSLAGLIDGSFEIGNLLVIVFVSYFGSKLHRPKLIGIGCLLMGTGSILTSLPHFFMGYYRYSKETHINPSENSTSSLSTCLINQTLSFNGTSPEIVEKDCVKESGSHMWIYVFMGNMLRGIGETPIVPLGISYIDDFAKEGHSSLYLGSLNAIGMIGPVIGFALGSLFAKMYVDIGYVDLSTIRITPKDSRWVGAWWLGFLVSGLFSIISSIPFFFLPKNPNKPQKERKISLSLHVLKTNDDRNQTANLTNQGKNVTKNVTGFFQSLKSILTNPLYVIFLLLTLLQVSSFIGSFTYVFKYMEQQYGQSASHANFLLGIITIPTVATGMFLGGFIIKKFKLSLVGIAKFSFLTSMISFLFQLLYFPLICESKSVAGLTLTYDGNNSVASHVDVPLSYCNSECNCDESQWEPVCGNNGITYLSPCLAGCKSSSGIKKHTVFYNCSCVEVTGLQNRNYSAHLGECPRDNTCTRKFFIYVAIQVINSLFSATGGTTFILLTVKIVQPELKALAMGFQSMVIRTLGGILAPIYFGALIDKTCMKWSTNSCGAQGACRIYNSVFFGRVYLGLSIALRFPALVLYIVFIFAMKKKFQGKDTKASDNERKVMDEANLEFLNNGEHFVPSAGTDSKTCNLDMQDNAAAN

| Compound | target or system | test | test system | setting | how to read | measurement | result |
| --- | --- | --- | --- | --- | --- | --- | --- |
| CC(C)C[C@@H](N)C(=O)N[C@H](CC(C)C)C(=O)N[C@H](Cc1ccccc1)C(=O)N[C@H](Cc1ccccc1)C(=O)N[C@H](C)C(=O)N[C@H](CCC(=O)O)C(N)=O | NGF-differentiated PC-12 neurons |  |  | 5 µM, 24 h | reference: untreated | viability | 100% |
| CC1CCN(CCCNC(=O)c2cc(Sc3ccc(F)cc3)nc3ccccc23)CC1 | Vero-E6 | CellTiter-Glo ATP |  | 72 h, second round 5-point | reference: DMSO 0%, hyamine -100%, more negative, more toxic | maximum response | -9.27% |
| CC(=O)N1CCC(C(=O)N2CCN3C(=O)c4cc(-c5ccccc5)ccc4NC(=O)C3C2)CC1 (centres unmarked) | Salmonella typhimurium |  | TA1535 | 500 µg/plate |  | revertants per plate | 18.5 |
| CCN(CCO)CCCC(C)Nc1ccnc2cc(Cl)ccc12 (centres unmarked) | SLCO1B3 | transport, inhibitor | transiently transfected cells | 100 µM, 10 (unit not given), with: CCK-8 |  | inhibition | 63.4% |
| CCN(CC)C(=O)[C@@H]1C=C2c3cccc4[nH]cc(c34)C[C@H]2N(C)C1 |  | refers to: hypersensitivity to cold | healthy volunteers | dose not given, 12 to 24 h | reference: placebo, direction not given | List of Complaints score | -1 |
| Cc1ncccc1-c1nc2cc(C(=O)NCCCc3ccccc3)ccc2o1 | Vero-E6 | CellTiter-Glo ATP |  | concentration not given, 72 h, second round 5-point | reference: DMSO 0%, hyamine -100%, more negative, more toxic | cytotoxicity efficacy | 0% |
| C[C@H]1[C@H](OC(=O)CCC(=O)O)O[C@@H]2O[C@@]3(C)CC[C@H]4[C@H](C)CC[C@@H]1[C@@]24OO3 | human coronavirus OC43 | virus-induced cell killing | MRC-5 | screen |  | maximum inhibition | 20.8% |
| Cc1noc2c(NC3CCOCC3)cc(-c3cccc(C(F)(F)F)c3)nc12 | Vero-E6 | CellTiter-Glo ATP |  | concentration not given, 72 h, retest 8-point duplicates | reference: DMSO 0%, hyamine -100%, more negative, more toxic | cytotoxicity efficacy | -58.8% |
| CC(C)C[C@H](NC(=O)C[C@H](O)[C@H](CC(C)C)NC(=O)[C@H](Cc1c[nH]cn1)NC(=O)CNC(=O)[C@@H](NC(=O)[C@H](C)NC(=O)[C@H](Cc1c[nH]c2ccccc12)NC(=O)[C@H](CCC(N)=O)NC(=O)[C@@H](Cc1ccccc1)NC(=O)CCNC(=O)CCSc1nnc(NCCC(=O)NCCC(=O)NCCCC[C@H](NC(=O)N[C@@H](CCC(=O)O)C(=O)O)C(=O)O)c2c1CCC1C(CC2)C1COC(=O)NCCNC(=O)CC[C@H](C(=O)O)N1CCN(CC(=O)O)CCN(CC(=O)O)CC1)C(C)C)C(N)=O (some centres unmarked) [gallium-68 labelled] |  |  | athymic NMRI nude mouse, kidneys | intravenous, 533 pmol, 2 h |  | tissue uptake | 17.6 %ID/g |
| CC(=O)c1c(C)c2cnc(Nc3ccc(C4CCN(CCS(C)(=O)=O)CC4)cn3)nc2n(C2CCCC2)c1=O |  |  | HR+/HER2- advanced breast cancer patients | oral, dose not given, all grades, total |  | patients with platelet count decreased | 27.2% |
| Fc1ccc(CNc2ncnc3ccc(F)cc23)cc1 | human coronavirus OC43 | virus-induced cell killing | MRC-5 | screen |  | maximum inhibition | 14.7% |
| C[C@]1(CO)Cc2ncn(-c3ccc(C#N)c(Cl)c3)c2C(=O)O1 |  |  | healthy humans | 10 mg, fasted |  | drug-related Hyperhidrosis incidence | 0% |
| CC(C)(Nc1nc(N2CCNCC2)nc2ccccc12)c1ccccc1 | Vero-E6 | CellTiter-Glo ATP |  | concentration not given, 72 h, retest 8-point duplicates | reference: DMSO 0%, hyamine -100%, more negative, more toxic | cytotoxicity efficacy | 0% |
| COc1cc2c(Oc3ccc4[nH]c(C)cc4c3F)ccnc2cc1OCC1(N)CC1 |  |  | paediatric recurrent refractory sarcoma | 12 mg |  | grade 1 or 2 Hematochezia | 9.1% |
| O=C1c2c(O)c(=O)ccn2N([C@@H]2c3ccccc3SCc3c2ccc(F)c3F)[C@@H]2COCCN12 |  |  | BALB/c mouse | subcutaneous, 0.5 mg/kg q24h |  | trough concentration | 0.222 ng/mL |
| CCCC(C(=O)c1ccc(O)c(OC)c1)N1CCCC1 (centres unmarked) |  |  | rat | subcutaneous, 4 mg/kg MDPV, 40 min |  | brain-to-plasma ratio | 0.4 ± 0.1 |
| Cc1cc(C(=O)NC(C)(C)COc2cccc3c2C(N)=NS(=O)(=O)N3)cc(C)n1 | Salmonella typhimurium | Ames test, initial | TA1537 | 1500 µg/plate, with: rat liver S9 | reference: solvent control | revertant ratio | 1.1 |
| CN/C(=N\[N+](=O)[O-])NCc1cnc(Cl)s1 |  |  | soil | 56 days, nominal 0.37 |  | recovery | 54% |

| Compound | target or system | test | test system | setting | how to read | measurement | result |
| --- | --- | --- | --- | --- | --- | --- | --- |
| COc1ccc(-c2nc(CN3CCC(C(=O)NCCCN4CCN(c5ccccc5F)CC4)CC3)c(C)o2)cc1OC | Vero-E6 | CellTiter-Glo ATP |  | 72 h, second round 5-point | reference: DMSO 0%, hyamine -100%, more negative, more toxic | maximum response | -22.8% |
| C[C@H]1CN(N=O)CCc2ccc(Cl)cc21 | TK6 |  |  | 5 µM, 4 h, with: hamster liver S9 | reference: vehicle | relative survival | 104% |
| Cc1ccc(Nc2ccnc(N3CCCC3C(=O)NCCCc3ccccc3)n2)cc1 (centres unmarked) | Vero-E6 | CellTiter-Glo ATP |  | concentration not given, 72 h, first round 5-point | reference: DMSO 0%, hyamine -100%, more negative, more toxic | cytotoxicity efficacy | 0% |
| CCCC(C(=O)c1ccc2c(c1)OCO2)N1CCCC1.Cl (racemic) |  | LC-MS/MS | rat, trunk blood plasma | subcutaneous, 2 mg/kg, 40 min |  | plasma concentration | 318 ± 24.4 ng/mL |
| CC(C)C[C@@H](N)C(=O)N1CCC[C@@H]1C(=O)N[C@H](Cc1ccccc1)C(=O)N[C@H](Cc1ccccc1)C(=O)N[C@H](C)C(=O)N[C@H](CCC(=O)O)C(N)=O | NGF-differentiated PC-12 neurons |  |  | 10 µM, 24 h | reference: untreated | viability | 99.5% |
| CN1CC[C@@H](c2c(O)cc(O)c3c(=O)cc(-c4ccc(C(F)(F)F)cc4Cl)oc23)[C@@H]1CO |  | refers to: Hypotension | relapsed AML | oral, 150 mg, grade 3-4, intermittent dosing |  | patients with adverse event | 25% |
| CCCC(C(=O)c1ccc(O)c(O)c1)N1CCCC1 (centres unmarked) |  | LC-MS/MS | rat, trunk blood plasma | subcutaneous, 2 mg/kg MDPV, 240 min |  | plasma concentration | 32.3 ± 3.5 ng/mL |
| CC(C)(C)N1CCC(c2ccccc2)(c2ccccc2)CC1 | Vero-E6 | CellTiter-Glo ATP |  | 72 h, retest 8-point duplicates | reference: DMSO 0%, hyamine -100%, more negative, more toxic | maximum response | -4.28% |
| C=CCN1CC[C@]23c4c5ccc(O)c4O[C@H]2C(=O)CC[C@@]3(O)[C@H]1C5 | Hep3B | MTT |  | 100 µM, 72 h, 10% FBS |  | viability | 100% and 105% |
| O=C1CCC(N2C(=O)c3ccccc3C2=O)C(=O)N1 (centres unmarked) | SLCO1B3 | transport, inhibitor | transiently transfected cells | 100 µM, 10 (unit not given), with: CCK-8 |  | inhibition | -63.5% |
| N#Cc1c(Nc2ccc(F)cc2)n[nH]c1NS(=O)(=O)c1ccc2ccccc2c1 | Huh-7 |  |  |  |  | CC50 | 8 µM |
| CC(Nc1nc(N2CCNCC2C)nc2ccccc12)c1ccccc1 (centres unmarked) | Vero-E6 | CellTiter-Glo ATP |  | concentration not given, 72 h, retest 8-point duplicates | reference: DMSO 0%, hyamine -100%, more negative, more toxic | cytotoxicity efficacy | 0% |
| [Cl-].[Cl-].[Pt+2].[Ru+2].c1ccc(-c2nc3ccccc3nc2-c2ccccn2)nc1.c1cnc2c(c1)ccc1cccnc12.c1cnc2c(c1)ccc1cccnc12 | Danio rerio |  | embryos | 60 µM, 48 h |  | survival rate | 70 ± 4.1% |
| CCCCc1nc(Cl)c(CO)n1Cc1ccc(-c2ccccc2-c2nn[nH]n2)cc1 | SLCO1B3 | transport, inhibitor | transiently transfected cells | 100 µM, 10 (unit not given), with: CCK-8 |  | inhibition | 99.7% |
| O=c1ccc2ccccc2o1 | NHEK | cell count |  | concentration not given, 24 h, NRF2 oxidative stress panel |  | chance response | 0.01% |
| CO[C@H]1C[C@@H]2CC[C@@H](C)[C@@](O)(O2)C(=O)C(=O)N2CCCC[C@H]2C(=O)O[C@H]([C@H](C)C[C@@H]2CC[C@@H](OC(=O)NCCOCCOCCOCCOCCOCCOCCOCCOCCC(=O)N3CCc4cc(Cn5nc(-c6ccc7oc(N)nc7c6)c6c(N)ncnc65)ccc4C3)[C@H](OC)C2)C[C@@H](O)[C@H](C)/C=C(\C)[C@@H](O)[C@@H](OC)C(=O)[C@H](C)C[C@H](C)/C=C/C=C/C=C/1C |  | phase 1 dose escalation | advanced solid tumour patients | intravenous, 16 mg weekly, any grade |  | any SAE incidence | 50% |
| CCOC(=O)c1c(CSc2ccccc2)n(C)c2cc(Br)c(O)c(CN(C)C)c12 | SLCO1B3 | transport, inhibitor | transiently transfected cells | 100 µM, 10 (unit not given), with: CCK-8 |  | inhibition | 9.1% |

A few entries again:
| Compound | target or system | test | test system | setting | how to read | measurement | result |
| --- | --- | --- | --- | --- | --- | --- | --- |
| CC(Nc1nc(N2CCNCC2C)nc2ccccc12)c1ccccc1 (centres unmarked) | Vero-E6 | CellTiter-Glo ATP |  | concentration not given, 72 h, retest 8-point duplicates | reference: DMSO 0%, hyamine -100%, more negative, more toxic | cytotoxicity efficacy | 0% |
| [Cl-].[Cl-].[Pt+2].[Ru+2].c1ccc(-c2nc3ccccc3nc2-c2ccccn2)nc1.c1cnc2c(c1)ccc1cccnc12.c1cnc2c(c1)ccc1cccnc12 | Danio rerio |  | embryos | 60 µM, 48 h |  | survival rate | 70 ± 4.1% |
| CCCCc1nc(Cl)c(CO)n1Cc1ccc(-c2ccccc2-c2nn[nH]n2)cc1 | SLCO1B3 | transport, inhibitor | transiently transfected cells | 100 µM, 10 (unit not given), with: CCK-8 |  | inhibition | 99.7% |
| O=c1ccc2ccccc2o1 | NHEK | cell count |  | concentration not given, 24 h, NRF2 oxidative stress panel |  | chance response | 0.01% |
